Experimental data from different studies.
A part holds a random share of what one study measured. Positions count from the first letter of the parent shown.

Set 1 — method: protein-binding microarray; form: double-stranded DNA, one strand shown; medium: in vitro; concentration: not given; direction: higher = stronger binding; quantity: E-score
Target: Protein C-ets-1 (ETS1, Homo sapiens, UniProt P14921, residues 1-441, full length assumed)
Notes: k-mer, scored over probes, only values ≥0.25
Construct (chain): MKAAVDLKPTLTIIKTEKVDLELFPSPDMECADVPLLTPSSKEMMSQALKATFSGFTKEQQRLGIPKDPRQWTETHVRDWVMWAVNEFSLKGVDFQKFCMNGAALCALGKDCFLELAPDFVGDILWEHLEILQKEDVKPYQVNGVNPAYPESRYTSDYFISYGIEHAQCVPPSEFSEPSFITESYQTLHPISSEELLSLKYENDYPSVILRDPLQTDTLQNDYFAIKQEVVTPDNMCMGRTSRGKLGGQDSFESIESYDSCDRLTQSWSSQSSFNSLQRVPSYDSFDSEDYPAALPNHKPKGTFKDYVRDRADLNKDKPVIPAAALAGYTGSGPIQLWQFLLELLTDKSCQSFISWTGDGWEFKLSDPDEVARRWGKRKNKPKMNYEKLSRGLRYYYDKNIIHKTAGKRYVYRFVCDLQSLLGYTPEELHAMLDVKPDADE
GACCGGAA: 0.489
ACGGGAAA: 0.41
CTTCCATC: 0.281
AGGATACC: 0.347
GCTTCCGA: 0.424
ATGCATCC: 0.356

Set 2 — method: protein binding microarray; form: double-stranded DNA, one strand shown; medium: in vitro; concentration: not given; reference: not given; direction: higher = stronger binding; quantity: E-score
Target: Histone acetyltransferase KAT6A, winged helix 2, GST fusion (KAT6A, Homo sapiens, UniProt Q92794, residues 85-181)
Notes: 8-mer, flanks averaged, mean of 2 arrays, mostly near background
Target sequence (chain): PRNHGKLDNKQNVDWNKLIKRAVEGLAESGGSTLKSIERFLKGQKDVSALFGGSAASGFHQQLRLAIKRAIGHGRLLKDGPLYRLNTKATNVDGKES
AATGAGTC: -0.277
TATCAGAA: 0.199
GACATAAA: -0.0982
CCGAACCG: 0.137
CAATCCGC: 0.116
CTGTAAGA: -0.189
CGTTACAA: -0.0123
CAATAAAA: -0.136

Set 3 — target: CCND3, cyclin fold, Cln2 fusion (human); method: yeast growth competition, sequencing; medium: yeast; notes: weak parent motif; reference: not given; direction: higher = stronger binding; quantity: normalised enrichment score
Starting sequence: RBL1 docking peptide (human); GSAKRRLFGEDPP; partner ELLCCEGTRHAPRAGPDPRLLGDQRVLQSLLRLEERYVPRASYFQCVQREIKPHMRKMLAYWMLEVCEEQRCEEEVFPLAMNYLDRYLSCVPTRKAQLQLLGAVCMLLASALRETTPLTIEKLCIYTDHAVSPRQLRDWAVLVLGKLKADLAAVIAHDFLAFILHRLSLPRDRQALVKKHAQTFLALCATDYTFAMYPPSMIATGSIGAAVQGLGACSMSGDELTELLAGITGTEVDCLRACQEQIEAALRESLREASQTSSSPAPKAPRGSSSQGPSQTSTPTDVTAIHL
GGAKRRLFGEDPP [S2G]: 0.067
GSAKRREFGEDPP [L7E]: 0.0892
GSAKRRLFSEDPP [G9S]: 0.166
GSAKRRLFGFDPP [E10F]: 0.181
GSAKMRLFGEDPP [R5M]: 0.182
GSAKRRLFGEDPY [P13Y]: 0.0807
GSAKRQLFGEDPP [R6Q]: 0.0653

Other studies, line by line
PhoQ, residues 284 288 289 292 302 303 SLKLQV — fold induction (PhoP, residues 12 14 15 18 19 NMSSL (Escherichia coli, UniProt P23836); Sort-seq, refers to: YFP reporter; E. coli; PhoQ-PhoP variant library, added: 10 µM Mg2+; reference: high Mg2+ state, higher = stronger signaling): 9.49

Repeated from above (set 3):
GSAKMRLFGEDPP [R5M]: 0.182
GSAKRRLFGEDPY [P13Y]: 0.0807
